# Published values of several laboratories.
# Protocols differ between the studies behind these lines. Values joined by “and” are separate records of one study, mostly repeats; a detail may differ. ± marks the error that the study gave.
SMILES,assay,test system,setting,scale,endpoint,value
N#C[C@@H]1CCCN1C(=O)CNC(=O)c1ccnc2ccc(OCCCN3CCN(C(=O)CCc4ccc5c(c4)CN4CCN(Cc6cc(CCC(=O)O)ccc6O)CC(=O)[O][Al-]([18F])([O]C(=O)C4)[O]5)CC3)cc12 (stereo partly drawn),radio-TLC,"CD-1 mice, plasma","intravenous, 10 min post-injection",,radiochemical purity,94.9 ± 1.1%
O=C([O-])CN1CCN(CC(=O)[O-])CCN(Cc2cccc(C(=O)[O-])n2)CC1.[44Sc+3],,"mouse, stomach","intravenous, 1 h",,tracer uptake,0.27 %ID/g
C/C(N)=N/C(=N\S(=O)(=O)c1ccc(C(F)(F)F)cc1)N1C[C@H](c2ccccc2)C(c2ccc(Cl)cc2)=N1,,"C57BL/6 mouse, adipose tissue","intravenous, 10 mg/kg",,t1/2,3.7 h
C=CC(=O)Nc1cc(Nc2nccc(-c3cn(C)c4ccccc34)n2)c(OC)cc1N(C)CCNC,storage stability,human plasma,"10 d, -80 °C, MQC level",,recovery,101%
O=C(NS(=O)(=O)c1cccs1)c1cc2ccccc2n1Cc1ccc(Br)c2ccccc12,,"KM mouse, chronic hyperuricaemia model","dose not given, day 8",,body weight,29.2 g and 29.8 g and 28.4 g and 24.9 g and 28 g and 30.3 g
C=C(NC(=O)c1csc(-c2nc3c(cc2O)-c2nc(cs2)C(=O)NC(C(C)O)C(=O)NC(=C(C)OC)c2nc(cs2)C(=O)NC2c4nc(cs4)C(=O)NC(COC(=O)c4c5c6c(cccc6n4O)COC(=O)C(OC4CC(C)(O)C(N(C)C)C(C)O4)C2OC5)c2nc-3cs2)n1)C(N)=O (stereo not drawn),,"ICR mice, Streptococcus pneumoniae ATCC 49169 infected, immunocompromised, blood","intravenous, 2 mg/kg/day once daily",,Cmax,58.9 ng/mL
COC1C=COC2(C)Oc3c(C)c(O)c4c(c3C2=O)C2=NC3(CCN(CC(C)C)CC3)NC2=C(NC(=O)C(C)=CC=CC(C)C(O)C(C)C(O)C(C)C(OC(=O)c2cccnc2)C1C)C4=O (stereo not drawn),,"CD-1 mouse female, plasma","intravenous, 5 mg/kg",,elimination half-life,6.7 h
C[N+](C)(CCOCCOCCOCCNC(=S)Nc1ccc(C[C@H]2CN(CC(=O)[O-])CCN(CC(=O)[O-])CCN2CC(=O)[O-])cc1)C[c-]1cccc1.[64Cu+2].[Fe+2].c1cc[cH-]c1,,"nude mice, BxPC-3 xenograft, large intestine","8 h, pretargeted, 216 h lag time",,large intestine uptake,1.3 ± 0.6 %ID/g
CC[C@H](C)[C@@H]1NC(=O)[C@H](Cc2ccc(O)cc2)NC(=O)CCCSC[C@@H](C(=O)N(CC(=O)N[C@@H](CC(C)C)C(=O)NCC(N)=O)Cc2ccc(F)cc2)NC(=O)[C@H](CC(N)=O)NC(=O)[C@H](CCC(N)=O)NC1=O,,human,"intranasal, 400 µg single dose",,severe adverse events,0%
Cc1cc(-c2ccc(C(=O)[C@@H]3CCCC[C@H]3C(=O)Nc3cnn4c3C(=O)NCC4)cc2)[nH]n1,,"human, urine","oral, 200 mg, 48-72 h",baseline: dose,radioactivity recovery per interval,0.08% and 0.09% and 0.15% and 0.11% and 0.05%
CN(Cc1ccccc1)C(=O)CN1CCN(CC(=O)N(C)Cc2ccccc2)CCN(Cc2cccc(C(=O)[O-])n2)CC1.[44Sc+3],,"mouse, bone","intravenous, 1 h",,tracer uptake,0.68 %ID/g
COc1cccc(OC)c1-c1cc(C(=O)NC2(C(=O)O)C3CC4CC(C3)CC2C4)nn1-c1ccc(C(=O)N(C)CCCN(C)C(=O)[C@H](CCCCNC(=O)[C@H](CC(C)C)NC(=O)C2OC2C(=O)O)NC(=O)CN2CCN(CC(=O)[O-])CCN(CC(=O)[O-])CCN(CC(=O)[O-])CC2)cc1C(C)C.[177Lu+3] (mixture of isomers),,"mouse, HT-29 xenograft","168 h post injection, biodistribution",baseline: tumour over muscle uptake,tumour-to-muscle ratio,7.56
Cc1ccc(OCC(=O)N(Cc2cccs2)c2ccn[nH]2)cc1,,human plasma,"750 ng/mL, 6 h, 37 °C, unit not given",baseline: time zero,remaining compound,84.4
CCC1CNC(CC)CN(C(C(=O)[O-])c2ccc(C(=O)[O-])cc2)C(CC)CN(CC(=O)[O-])C(CC)CN1.[Mn+2] (stereo not drawn),ICP-MS,"BALB/c mouse, heart","intravenous, 0.05 mmol/kg, 30 min, without anaesthesia",,Mn content,0.84 ± 0.14 µg/g
O=C1CCC(N2Cc3cc(C(=O)O)c(F)cc3C2=O)C(=O)N1 (stereo not drawn),,"male CD-1 mouse, plasma","intravenous, 1 mg/kg, 1 h",,concentration,69 ng/mL
CC(C)(O)c1ncc([S@](N)(=O)=NC(=O)Nc2c3c(cc4c2CCC4)CCC3)s1,refers to: psychiatric disorders,healthy human,"oral, 3 mg, CS formulation",,subjects with TEAEs,17%
CC[C@H](C)[C@H](NC(=O)[C@@H](NC(=O)[C@H](CCCCN)NC(=O)[C@@H](NC(=O)[C@@H]1CCCN1[C@@H]1CN(C(=O)[C@@H](NC(=O)[C@@H](NC(=O)[C@@H](NC(=O)[C@@H](NC(=O)[C@@H](NC(=O)[C@@H](N)CCCCN)C(C)C)C(C)C)C(C)C)[C@@H](C)CC)[C@@H](C)O)CC[C@H]1NS(=O)(=O)c1ccc(C)cc1)[C@@H](C)O)C(C)C)C(=O)N[C@@H](CC(C)C)C(=O)N[C@@H](Cc1c[nH]cn1)C(N)=O,CD spectroscopy,20 mM phosphate buffer,"125 µM, 37 °C",,random coil content,56%
CC(C)OCCOCc1ccc(OCC(O)CN(N=O)C(C)C)cc1 (stereo not drawn),duplex sequencing,"NMRI mouse, bone marrow",concentration not given,,T>G mutation frequency,increased
N=C(N)NCCC[C@@H]1NC(=O)[C@H](CO)NC(=O)[C@@H](NC(=O)[C@H](CO)NC(=O)[C@H](CO)NC(=O)[C@H](Cc2c[nH]c3ccccc23)NC(=O)CNC(=O)[C@H](CO)NC(=O)[C@@H](N)Cc2c[nH]c3ccccc23)CSSC[C@@H](C(=O)NCC(=O)O)NC(=O)[C@H](CO)NC1=O,,"patients, plasma","intravenous, 5 mg/kg, thrice weekly, mean",,AUC(0-80 min),378 ng·h/mL
O=C1NC2(CC2)COc2ncc(F)cc2[C@H]2COCCN2c2ccn3ncc1c3n2,bone marrow micronucleus test,"NIH mice, male","oral, 200 mg/kg/day, 3 days",,micronucleus rate,1.15 ± 0.14 ‰
N#C[C@@H]1CC(F)(F)CN1C(=O)CNC(=O)c1ccnc2ccc(OCCCN3CCN(C(=O)CCc4ccc(O)c(CN5CCN6CC(=O)[O][Al-]([18F])([O]C(=O)C5)[O]c5ccc(CCC(=O)N7CCN(CCCOc8ccc9nccc(C(=O)NCC(=O)N%10CC(F)(F)C[C@H]%10C#N)c9c8)CC7)cc5C6)c4)CC3)cc12 (stereo partly drawn),radio-TLC,"CD-1 mice, plasma","intravenous, 10 min post-injection",,radiochemical purity,95.5 ± 2.4%
CCCCN1C(=O)c2cccc3c(NCCCCN4CCOCC4)ccc(c23)C1=O,,methanol,,,fluorescence lifetime,8.8 ns
CN(Cc1ccccc1)C(=O)CN1CCN(CC(=O)[O-])CCN(Cc2cccc(C(=O)[O-])n2)CC1.[18F-].[Sc+3],,"mouse, heart","intravenous, 1 h",,tracer uptake,0.1 %ID/g
O=C(Nc1ccccc1)C1(C(F)(F)F)CCC1,,water,24 h,,logP,2.51
Cc1nn(-c2nc3c(F)cc(F)cc3s2)c(O)c1C(c1ccc(C(F)(F)F)cc1)c1c(C)nn(-c2nc3c(F)cc(F)cc3s2)c1O,,"ICR mouse, plasma","intravenous, 5 mg/kg",,AUMC extrapolated observed,18.3% and 65.9% and 39.6%
CC(=O)N([O-])CCCCCNC(=O)CCC(=O)N([O-])CCCCCNC(=O)CCC(=O)N([O-])CCCCCN.[89Zr+4],,human plasma,"1 d, 37 °C",,intact complex,100%
O=C(Nc1cnccc1-c1ccc([18F])nc1)c1ccnc(NC(=O)C2CC2)c1,ex vivo gamma counting,"GSK-3β transgenic mice, early-stage, eyes","intravenous, 120 min, mean, P-gp inhibitor pretreatment, with: tariquidar 15 mg/kg iv",,SUV,0.072
CN(Cc1ccccc1)C(=O)CN1CCN(CC(=O)[O-])CCN(CC(=O)[O-])CC1.[44Sc+3],,"mouse, stomach","intravenous, 1 h",,tracer uptake,1.06 %ID/g
CC(C)(O)c1ccc(N2Cc3c(ccnc3-c3ccc(F)cc3OCC(F)(F)F)C2=O)cc1,,"male C57BL/6 mouse, plasma","oral, 300 mg/kg, 6 h",,concentration,16900 ng/mL
CN(Cc1ccccc1)C(=O)CN1CCN(CC(=O)[O-])CCN(CC(=O)N(C)Cc2ccccc2)CC1.[44Sc+3],,"mouse, heart","intravenous, 1 h",,tracer uptake,0.49 %ID/g
COc1ccc2c(c1)CCn1c[n+]3c(c1-2)-c1ccc(OC)cc1CC3,,"female NSG mice, blood","6 mg/kg, day 7, 5 days per week",,red cell distribution width,15.2 ± 0.57%
COc1cccc(OC)c1-c1cc(C(=O)NC2(C(=O)O)C3CC4CC(C3)CC2C4)nn1-c1ccc(C(=O)NCCNC(=O)[C@H](CCCCNC(=O)[C@H](CC(C)C)NC(=O)C2OC2C(=O)O)NC(=O)CN2CCN(CC(=O)[O-])CCN(CC(=O)[O-])CCN(CC(=O)[O-])CC2)cc1C(C)C.[177Lu+3] (mixture of isomers),,"mouse, HT-29 xenograft","72 h post injection, biodistribution",baseline: tumour over muscle uptake,tumour-to-muscle ratio,45.4
CN([O-])C(=O)CN1CCNCCN(CC(=O)N(C)[O-])CC1.[89Zr+4],radio-TLC,human serum,"3 days, run 1",,intact complex,100%
COc1ccc(Nc2nc(Nc3ccc(OCCOCCOCC[18F])cc3)ncc2Br)cc1,,"ICR mice, S180 tumour","intravenous, 370 kBq, 120 min",baseline: tumour over muscle,uptake ratio,1.46
C=CC(=O)Nc1cc(Nc2nccc(-c3c[nH]c4ccccc34)n2)c(OC)cc1N(C)CCN(C)C,storage stability,human plasma,"10 d, -80 °C, LQC level",,recovery,101%
O=C(Nc1cnccc1-c1ccc([18F])cc1)c1ccnc(NC(=O)C2CC2)c1,PET imaging,"FVB/NJ mice, both sexes, brain","intravenous, 15 min post-injection, P-gp inhibited, with: tariquidar 15 mg/kg iv, 2 h before",,SUV,0.46
O=C([O-])CN1CCN(CC(=O)[O-])CCN(CC(=O)[O-])CC1.[44Sc+3],,"mouse, lung","intravenous, 1 h",,tracer uptake,0.22 %ID/g
COc1cccc(OC)c1-c1cc(C(=O)NC2(C(=O)O)C3CC4CC(C3)CC2C4)nn1-c1ccc(C(=O)N(C)CCCN(C)CCCN(C)C(=O)[C@H](CCCCNC(=O)[C@H](CC(C)C)NC(=O)C2OC2C(=O)O)NC(=O)CN2CCN(CC(=O)[O-])CCN(CC(=O)[O-])CCN(CC(=O)[O-])CC2)cc1C(C)C.[177Lu+3] (mixture of isomers),,"mouse, HT-29 xenograft","24 h post injection, biodistribution",baseline: tumour over muscle uptake,tumour-to-muscle ratio,23.5
CC(C)n1ncc2c(C(=O)NCCN(C)C)cc(C3CC3)nc21,,"female BALB/c mouse, plasma","intraperitoneal, 50 mg/kg, 1 h",,concentration,916 ng/mL

# Excerpt of the above:
SMILES,assay,test system,setting,scale,endpoint,value
O=C1NC2(CC2)COc2ncc(F)cc2[C@H]2COCCN2c2ccn3ncc1c3n2,bone marrow micronucleus test,"NIH mice, male","oral, 200 mg/kg/day, 3 days",,micronucleus rate,1.15 ± 0.14 ‰
N#C[C@@H]1CC(F)(F)CN1C(=O)CNC(=O)c1ccnc2ccc(OCCCN3CCN(C(=O)CCc4ccc(O)c(CN5CCN6CC(=O)[O][Al-]([18F])([O]C(=O)C5)[O]c5ccc(CCC(=O)N7CCN(CCCOc8ccc9nccc(C(=O)NCC(=O)N%10CC(F)(F)C[C@H]%10C#N)c9c8)CC7)cc5C6)c4)CC3)cc12 (stereo partly drawn),radio-TLC,"CD-1 mice, plasma","intravenous, 10 min post-injection",,radiochemical purity,95.5 ± 2.4%
